Measured values from different studies.
Protocols differ between the studies behind these lines. “And” joins repeats or separate records; there may be more than shown. ± gives the spread as reported.
Cacna1b with α2δ, β3 subunits: Voltage-dependent N-type calcium channel subunit alpha-1B, with α2δ, β3 subunits (Cacna1b, Rattus norvegicus, UniProt Q02294)

Chains of the proteins cited; added tags and fusions are not shown. Lines headed by an entry give the natural chain unless they say otherwise; changes in a name come on top. Residues count along the entry.
UniProt Q02294, whole entry, looked up: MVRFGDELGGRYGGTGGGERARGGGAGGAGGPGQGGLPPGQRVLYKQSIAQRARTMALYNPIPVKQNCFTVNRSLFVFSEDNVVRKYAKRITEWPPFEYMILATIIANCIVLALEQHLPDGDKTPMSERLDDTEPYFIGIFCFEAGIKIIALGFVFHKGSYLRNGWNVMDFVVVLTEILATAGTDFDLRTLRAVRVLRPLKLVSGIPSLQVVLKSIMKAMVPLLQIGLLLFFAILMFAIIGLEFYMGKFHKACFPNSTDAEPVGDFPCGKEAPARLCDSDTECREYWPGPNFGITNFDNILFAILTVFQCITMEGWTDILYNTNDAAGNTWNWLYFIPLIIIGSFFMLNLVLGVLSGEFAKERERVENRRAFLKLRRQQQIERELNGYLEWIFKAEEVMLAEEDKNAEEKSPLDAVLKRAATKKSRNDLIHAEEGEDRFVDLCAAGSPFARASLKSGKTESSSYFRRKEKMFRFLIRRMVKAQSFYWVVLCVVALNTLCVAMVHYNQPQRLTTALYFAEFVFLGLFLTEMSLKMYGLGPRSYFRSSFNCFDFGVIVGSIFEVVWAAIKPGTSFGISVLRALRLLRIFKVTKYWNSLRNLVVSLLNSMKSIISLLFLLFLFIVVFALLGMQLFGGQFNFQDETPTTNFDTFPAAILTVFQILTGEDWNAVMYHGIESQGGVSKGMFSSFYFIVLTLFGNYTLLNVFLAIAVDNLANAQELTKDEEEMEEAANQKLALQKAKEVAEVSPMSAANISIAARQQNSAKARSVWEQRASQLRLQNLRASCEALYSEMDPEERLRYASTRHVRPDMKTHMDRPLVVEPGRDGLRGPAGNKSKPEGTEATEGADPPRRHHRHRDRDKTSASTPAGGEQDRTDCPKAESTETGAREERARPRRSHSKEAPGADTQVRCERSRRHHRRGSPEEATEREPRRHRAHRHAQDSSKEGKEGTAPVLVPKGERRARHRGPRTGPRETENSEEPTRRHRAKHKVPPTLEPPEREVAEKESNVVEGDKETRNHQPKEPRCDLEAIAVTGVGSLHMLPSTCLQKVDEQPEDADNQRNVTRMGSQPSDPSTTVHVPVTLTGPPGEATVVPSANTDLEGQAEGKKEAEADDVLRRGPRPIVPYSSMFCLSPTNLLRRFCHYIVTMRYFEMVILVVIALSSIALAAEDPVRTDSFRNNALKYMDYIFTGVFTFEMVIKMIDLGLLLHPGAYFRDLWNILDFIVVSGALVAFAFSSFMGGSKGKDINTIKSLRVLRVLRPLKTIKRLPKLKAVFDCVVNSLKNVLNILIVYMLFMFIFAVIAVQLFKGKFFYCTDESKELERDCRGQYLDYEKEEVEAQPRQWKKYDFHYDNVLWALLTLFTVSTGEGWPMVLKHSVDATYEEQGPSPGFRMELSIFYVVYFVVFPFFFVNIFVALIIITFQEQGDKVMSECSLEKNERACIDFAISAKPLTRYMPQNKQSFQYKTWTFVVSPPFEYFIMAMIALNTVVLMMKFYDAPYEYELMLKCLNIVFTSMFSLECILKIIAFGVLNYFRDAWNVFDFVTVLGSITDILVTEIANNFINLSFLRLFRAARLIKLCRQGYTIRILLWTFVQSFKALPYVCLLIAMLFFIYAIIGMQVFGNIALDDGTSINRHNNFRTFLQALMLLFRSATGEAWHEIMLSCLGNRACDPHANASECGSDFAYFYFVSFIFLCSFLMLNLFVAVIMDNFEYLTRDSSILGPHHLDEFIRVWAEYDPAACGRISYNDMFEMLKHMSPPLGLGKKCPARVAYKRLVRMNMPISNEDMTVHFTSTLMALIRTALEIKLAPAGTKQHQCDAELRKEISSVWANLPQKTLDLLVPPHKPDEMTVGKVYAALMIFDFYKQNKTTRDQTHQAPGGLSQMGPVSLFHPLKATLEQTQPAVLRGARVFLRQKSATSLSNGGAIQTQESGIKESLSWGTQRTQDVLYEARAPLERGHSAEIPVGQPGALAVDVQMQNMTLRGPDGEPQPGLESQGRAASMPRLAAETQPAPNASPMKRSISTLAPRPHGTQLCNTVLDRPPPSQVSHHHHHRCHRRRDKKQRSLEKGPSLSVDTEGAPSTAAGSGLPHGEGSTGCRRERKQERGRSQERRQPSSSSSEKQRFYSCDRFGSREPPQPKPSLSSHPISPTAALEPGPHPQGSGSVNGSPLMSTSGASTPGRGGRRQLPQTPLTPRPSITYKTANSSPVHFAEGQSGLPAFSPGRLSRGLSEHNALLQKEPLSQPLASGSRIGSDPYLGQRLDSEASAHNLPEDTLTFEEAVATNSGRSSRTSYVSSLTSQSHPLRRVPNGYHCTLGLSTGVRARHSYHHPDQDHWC
UniProt O42275, whole entry, looked up: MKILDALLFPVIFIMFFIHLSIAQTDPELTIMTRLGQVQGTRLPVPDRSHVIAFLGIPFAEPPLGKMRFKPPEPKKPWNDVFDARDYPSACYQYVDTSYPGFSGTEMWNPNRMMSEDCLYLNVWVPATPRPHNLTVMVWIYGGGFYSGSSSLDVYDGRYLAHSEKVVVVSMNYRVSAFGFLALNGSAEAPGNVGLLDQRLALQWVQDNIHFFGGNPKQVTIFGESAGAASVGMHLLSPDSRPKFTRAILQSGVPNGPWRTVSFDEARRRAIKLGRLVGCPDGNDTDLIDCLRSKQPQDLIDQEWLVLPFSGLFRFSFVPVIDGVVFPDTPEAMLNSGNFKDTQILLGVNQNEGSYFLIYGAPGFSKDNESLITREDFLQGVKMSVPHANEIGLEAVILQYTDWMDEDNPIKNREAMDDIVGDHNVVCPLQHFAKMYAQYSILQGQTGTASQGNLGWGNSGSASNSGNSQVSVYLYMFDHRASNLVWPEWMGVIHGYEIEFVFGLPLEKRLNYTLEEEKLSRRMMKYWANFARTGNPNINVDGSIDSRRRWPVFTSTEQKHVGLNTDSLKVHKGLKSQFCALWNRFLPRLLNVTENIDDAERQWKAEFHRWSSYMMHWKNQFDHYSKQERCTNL
UniProt P43144, 26-479 limits assumed: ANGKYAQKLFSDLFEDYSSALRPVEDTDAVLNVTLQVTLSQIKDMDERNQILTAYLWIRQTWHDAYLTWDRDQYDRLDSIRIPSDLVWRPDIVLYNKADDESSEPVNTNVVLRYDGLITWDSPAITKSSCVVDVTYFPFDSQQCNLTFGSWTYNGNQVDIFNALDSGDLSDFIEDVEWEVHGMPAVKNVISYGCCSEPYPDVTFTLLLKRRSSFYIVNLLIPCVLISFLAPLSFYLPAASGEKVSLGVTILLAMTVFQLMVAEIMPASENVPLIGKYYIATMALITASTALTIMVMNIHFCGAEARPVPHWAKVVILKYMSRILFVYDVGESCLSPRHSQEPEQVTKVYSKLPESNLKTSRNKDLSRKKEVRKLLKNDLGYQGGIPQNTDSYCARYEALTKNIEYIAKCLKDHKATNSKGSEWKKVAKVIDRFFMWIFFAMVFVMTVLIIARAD
UniProt Q9JLB5, 25-447 limits assumed: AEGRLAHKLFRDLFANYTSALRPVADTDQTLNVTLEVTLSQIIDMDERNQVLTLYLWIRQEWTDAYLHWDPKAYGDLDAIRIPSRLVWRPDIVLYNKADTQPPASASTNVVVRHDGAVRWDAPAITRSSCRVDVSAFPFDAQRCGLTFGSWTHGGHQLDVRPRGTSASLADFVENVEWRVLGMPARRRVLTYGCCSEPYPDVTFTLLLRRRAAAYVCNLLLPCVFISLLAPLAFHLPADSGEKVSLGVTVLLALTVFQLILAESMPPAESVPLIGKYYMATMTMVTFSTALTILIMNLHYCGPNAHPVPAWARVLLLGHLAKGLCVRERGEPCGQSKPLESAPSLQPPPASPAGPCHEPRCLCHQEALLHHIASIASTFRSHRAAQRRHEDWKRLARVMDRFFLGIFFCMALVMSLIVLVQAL

CN(C)c1ccc2c(n1)sc1c(N3CCNCC3)ncnc12 has an IC50 of 14 ± 3 nM (Beta-glucuronidase (bglR, Clostridium perfringens, UniProt Q8XP19); enzyme activity, inhibitor).
C[C@@H](O)[C@@H]1NC(=O)[C@@H]2CSSC[C@H](N)C(=O)N[C@@H](CCCCN)C(=O)N[C@@H](CCCNC(=N)N)C(=O)N[C@@H](CCCCN)C(=O)NCC(=O)N[C@@H](CO)C(=O)N[C@@H](CO)C(=O)N[C@H]3CSSC[C@H](NC(=O)[C@H](CO)NC(=O)CNC1=O)C(=O)N[C@@H](CCCNC(=N)N)C(=O)N[C@@H](CC(N)=O)C(=O)NCC(=O)N[C@@H](CCCCN)C(=O)N[C@H](C(N)=O)CSSC[C@H](NC(=O)[C@H](CC(=O)O)NC(=O)[C@H](Cc1ccc(O)cc1)NC(=O)[C@H](CO)NC(=O)[C@H]([C@@H](C)O)NC(=O)[C@H](CCCNC(=N)N)NC(=O)[C@H](CCCNC(=N)N)NC3=O)C(=O)N2 has an IC50 of 14.4 nM (Cacna1b with α2δ, β3 subunits; Ba2+ current, inhibitor, whole-cell patch clamp; together with: Ba2+ 10 mM).
With CN(C)Cc1ccc(OC(=O)N(C)C)c(Cl)c1 the IC50 was 14000 ± 1000 nM (Acetylcholinesterase (ache, Electrophorus electricus, UniProt O42275); enzyme activity, inhibitor, Ellman; 10 min preincubation, pH 8, 23 °C).
With C[C@@H]1NC(=O)[C@H](CCCNC(=N)N)NC(=O)[C@@H]2CSSC[C@@H]3NC(=O)[C@H](CO)NC(=O)[C@H](CO)NC(=O)CNC(=O)[C@H](CCCCN)NC(=O)[C@H](CCCNC(=N)N)NC(=O)[C@H](CCCCN)NC(=O)[C@@H](N)CSSC[C@H](NC(=O)[C@H](CSSC[C@@H](C(N)=O)NC(=O)[C@H](CCCCN)NC(=O)CNC1=O)NC(=O)[C@H](CC(=O)O)NC(=O)[C@H](Cc1ccc(O)cc1)NC(=O)[C@H](CO)NC(=O)[C@H]([C@@H](C)O)NC(=O)[C@H](CCCNC(=N)N)NC(=O)[C@H](CCCNC(=N)N)NC3=O)C(=O)N[C@@H]([C@@H](C)O)C(=O)NCC(=O)N[C@@H](CO)C(=O)N2 the IC50 was 87 nM (Cacna1b with α2δ, β3 subunits; Ba2+ current, inhibitor, whole-cell patch clamp; HEK293 expressing α2δ and β3; 22 °C, together with: Ba2+ 20 mM).
CC[C@H](C)[C@H](NC(=O)[C@H](C)NC(=O)[C@H](CCC(=O)O)NC(=O)[C@H](CCC(=O)O)NC(=O)[C@H](CC(C)C)NC(=O)[C@H](CCCCN)NC(=O)[C@H](CCCCN)NC(=O)[C@H](CCSC)NC(=O)[C@H](CCC(=O)O)NC(=O)[C@H](Cc1ccc(O)cc1)NC(=O)[C@H](CCC(=O)O)NC(=O)[C@H](CC(C)C)NC(=O)[C@H](CC(=O)O)NC(=O)[C@H](CC(C)C)NC(=O)[C@H](Cc1ccccc1)NC(=O)[C@H](Cc1ccc(O)cc1)NC(=O)[C@@H](NC(=O)[C@H](CC(N)=O)NC(=O)[C@@H](NC(=O)[C@H](CCC(N)=O)NC(=O)[C@H](CC(=O)O)NC(=O)[C@H](CC(C)C)NC(=O)[C@@H](N)CO)[C@@H](C)CC)C(C)C)C(=O)N[C@@H](CCCCN)C(=O)N[C@@H](CCCCN)C(=O)N[C@@H](CC(C)C)C(=O)N[C@@H](CCC(=O)O)C(=O)N[C@@H](CCC(=O)O)C(=O)N[C@@H](CO)C(=O)N[C@@H](Cc1ccc(O)cc1)C(=O)N[C@H](C(=O)N[C@@H](CC(=O)O)C(=O)N[C@@H](CC(C)C)C(=O)N[C@@H](CCCCN)C(=O)N[C@@H](CCC(=O)O)C(=O)N[C@@H](CC(C)C)C(=O)O)[C@@H](C)CC has an IC50 of 894 nM (Spike glycoprotein (MERS-CoV, UniProt K9N5Q8); cell-cell fusion, inhibitor, luciferase fusion; 293T donor, Huh-7 target; 16 h, 37 °C).
With CS(=O)(=O)C=CCNC(=O)c1ccc2[nH]c(=O)n(C3CC3)c2c1 the IC50 was < 1500 nM and 1200 nM (Polyprotein P1234, nsP2 protease (Chikungunya virus, UniProt Q5XXP4); FRET; 90 min, 30 min preincubation).
The IC50 of O=C(Nc1ccc(F)cc1)C1C(=O)N(O)C(=O)c2cc([N+](=O)[O-])ccc21 (stereo not shown) is reported as 11500 nM (Nucleoprotein, exonuclease domain (N, Machupo virus, UniProt P26578); inhibitor).
The IC50 of CC[C@H](C)[C@H](NC(=O)[C@H](C)NC(=O)[C@H](CCC(=O)O)NC(=O)[C@H](CCC(=O)O)NC(=O)[C@H](CC(C)C)NC(=O)[C@H](CCCCN)NC(=O)[C@H](CCCCN)NC(=O)[C@H](CCSC)NC(=O)[C@H](CCC(=O)O)NC(=O)[C@H](Cc1ccc(O)cc1)NC(=O)[C@H](CCC(=O)O)NC(=O)[C@H](CC(C)C)NC(=O)[C@H](CC(=O)O)NC(=O)[C@H](CC(C)C)NC(=O)[C@H](Cc1ccccc1)NC(=O)[C@@H](NC(=O)[C@@H](NC(=O)[C@H](CC(N)=O)NC(=O)[C@@H](NC(=O)[C@H](CCC(N)=O)NC(=O)[C@H](CC(=O)O)NC(=O)[C@H](CC(C)C)NC(=O)[C@@H](N)CO)[C@@H](C)CC)C(C)C)[C@@H](C)O)C(=O)N[C@@H](CCCCN)C(=O)N[C@@H](CCCCN)C(=O)N[C@@H](CC(C)C)C(=O)N[C@@H](CCC(=O)O)C(=O)N[C@@H](CCC(=O)O)C(=O)N[C@@H](CO)C(=O)N[C@@H](Cc1ccc(O)cc1)C(=O)N[C@H](C(=O)N[C@@H](CC(=O)O)C(=O)N[C@@H](CC(C)C)C(=O)N[C@@H](CCCCN)C(=O)N[C@@H](CCC(=O)O)C(=O)N[C@@H](CC(C)C)C(=O)O)[C@@H](C)CC is reported as 85.6 nM (Spike glycoprotein (Severe acute respiratory syndrome coronavirus, UniProt P59594); cell-cell fusion, inhibitor, luciferase fusion; 293T donor, Huh-7 target; 16 h, 37 °C).
The IC50 of O=C(Nc1scc(-c2cccs2)c1C(=O)O)c1ccc(Br)cc1 is reported as 156000 nM (Replicase polyprotein 1ab, papain-like protease (rep, Severe acute respiratory syndrome-related coronavirus, UniProt P0C6X7); PLpro protease activity, inhibitor; together with: Z-RLRGG-AMC 40 µM).
For CC[C@H](C)[C@H](NC(=O)[C@H](C)NC(=O)[C@H](CCC(=O)O)NC(=O)[C@H](CCC(=O)O)NC(=O)[C@H](CC(C)C)NC(=O)[C@H](CCCCN)NC(=O)[C@H](CCCCN)NC(=O)[C@H](CCSC)NC(=O)[C@H](CCC(=O)O)NC(=O)[C@H](Cc1ccc(O)cc1)NC(=O)[C@H](CCC(=O)O)NC(=O)[C@H](CC(C)C)NC(=O)[C@H](CC(=O)O)NC(=O)[C@H](CC(C)C)NC(=O)[C@H](Cc1ccccc1)NC(=O)[C@H](Cc1ccccc1)NC(=O)[C@@H](NC(=O)[C@H](CC(N)=O)NC(=O)[C@@H](NC(=O)[C@H](CCC(N)=O)NC(=O)[C@H](CC(=O)O)NC(=O)[C@H](CC(C)C)NC(=O)[C@@H](N)CO)[C@@H](C)CC)C(C)C)C(=O)N[C@@H](CCCCN)C(=O)N[C@@H](CCCCN)C(=O)N[C@@H](CC(C)C)C(=O)N[C@@H](CCC(=O)O)C(=O)N[C@@H](CCC(=O)O)C(=O)N[C@H](C(=O)N[C@@H](Cc1ccc(O)cc1)C(=O)N[C@H](C(=O)N[C@@H](CC(=O)O)C(=O)N[C@@H](CC(C)C)C(=O)N[C@@H](CCCCN)C(=O)N[C@@H](CCC(=O)O)C(=O)N[C@@H](CC(C)C)C(=O)O)[C@@H](C)CC)[C@@H](C)O, the IC50 was 128 nM (Spike glycoprotein, Beta variant (Severe acute respiratory syndrome coronavirus 2, UniProt P0DTC2); cell-cell fusion, inhibitor, luciferase fusion; 293T donor, Huh-7 target; 16 h, 37 °C, dual mutations).
CN1CCN(C(c2ccccc2)c2ccccc2)CC1: IC50 “no inhibition” (Replicase polyprotein 1ab, nsp14 (rep, Severe acute respiratory syndrome-related coronavirus, UniProt P0C6X7); enzyme activity, inhibitor).
For c1ccc(Cn2cnc3ccccc32)cc1, the IC50 was greater than 100000 nM (Enoyl-[acyl-carrier-protein] reductase [NADH] (Francisella tularensis subsp. tularensis, UniProt Q5NGQ3)).
CN1C(=CC=CC=CC2=[N+](CCCCC(=O)NCC(=O)N[C@H]3CSSC[C@@H]4NC(=O)[C@H](CCCNC(=N)N)NC(=O)[C@@H]5CCCN5C(=O)[C@H](CC(=O)O)NC(=O)[C@H](CO)NC(=O)[C@H](CSSC[C@@H](C(=O)N[C@@H](CCCNC(=N)N)C(=O)O)NC(=O)[C@H](CCCNC(=N)N)NC(=O)[C@H](Cc5ccc(O)cc5)NC(=O)[C@H](CCCNC(=N)N)NC4=O)NC3=O)c3ccccc3C2(C)C)C(C)(C)c2ccccc21 gave an IC50 of 5 ± 0.8 nM (Nicotinic acetylcholine receptor alpha9/alpha10 (Rattus norvegicus, UniProt P43144+Q9JLB5); ACh-evoked current, antagonist, two-electrode voltage clamp; Xenopus oocytes; holding potential -80 mV, together with: ACh 100 µM).

Some of these lines once more:
CN(C)c1ccc2c(n1)sc1c(N3CCNCC3)ncnc12 has an IC50 of 14 ± 3 nM (Beta-glucuronidase (bglR, Clostridium perfringens, UniProt Q8XP19); enzyme activity, inhibitor).
